Assay results gathered from unrelated publications.
Each line is one published result; not all experiments were run side by side. Numbers after ± are the reported error. In brackets after ≈: the same amount, converted by molar mass.

SMILES | assay | system | setting | scale | measurement | result
CC[C@H](C)[C@@H]1NC(=O)[C@H](CCCNC(=N)N)NC(=O)[C@H](CCCNC(=N)N)NC(=O)[C@H](Cc2ccc(O)cc2)NC(=O)[C@H](CC(C)C)NC(=O)[C@@H]2CCCN2C(=O)[C@H](C)NC(=O)CNC(=O)CNC(=O)[C@H](CO)NC(=O)CNC(=O)CNC(=O)[C@H](CO)NC(=O)[C@H](CCC(=O)O)NC(=O)[C@H](CC(C)C)NC(=O)[C@H](CC(C)C)NC(=O)[C@H](CCCNC(=N)N)NC(=O)[C@H](CCCNC(=N)N)NC(=O)[C@H]([C@@H](C)CC)NC(=O)[C@H]([C@@H](C)CC)NC(=O)[C@H](CCCNC(=N)N)NC(=O)[C@H](CCCNC(=N)N)NC(=O)[C@H](Cc2ccc(O)cc2)NC(=O)[C@H](CC(C)C)NC(=O)[C@@H]2CCCN2C(=O)CNC(=O)CNC(=O)[C@@H](NC(=O)CN)CSSC[C@@H](C(N)=O)NC(=O)[C@H](CC(C)C)NC(=O)[C@H](CCCNC(=N)N)NC(=O)[C@H](CCCNC(=N)N)NC(=O)[C@H]([C@@H](C)CC)NC1=O | hemolysis | uninfected human erythrocytes | 1 h | – | HC10 | 6.6 ± 0.9 µM
CC(C)[C@H](NC(=O)CNC(=O)[C@H](CCC(N)=O)NC(=O)[C@H](C)N)C(=O)O | – | human | intravenous infusion, 15 mg/kg/h, 2 h, relatedness Definitely | relative to: subjects | drug-related adverse events | 0%
C=C1C(=O)OC2CC(C)C3C=CC(=O)C3(C)C(O[Si](C)(C)C)C12 (stereo not shown) | propidium iodide flow cytometry | primary splenocytes, BALB/c mouse | 48 h, 10% fetal calf serum | – | CC50 | 0.12 ± 0.1 µg/mL (≈ 0.359 µM)
N=C(N)NCc1ccc(C(=O)NCCCC[C@H](NC(=O)CCCCCCC(=O)NCCCC[C@H](NC(=O)N[C@@H](CCC(=O)O)C(=O)O)C(=O)O)C(=O)O)cc1[131I] | – | SCID mouse, PC-3 xenografts, thyroid | 2 h | – | tissue uptake | 0.31 ± 0.23 %ID/g
CCNC(=O)c1noc(-c2cc(C(C)C)c(O)cc2O)c1NC(=O)CCN1CCOCC1 | – | athymic nude mice, A2780/Dx xenograft | intraperitoneal, 200 mg/kg, every 4 days for 3 weeks | – | body weight loss | 2%
CC(C)C[C@H](NC(=O)[C@H](CCCCN)NC(=O)[C@H](C)NC(=O)[C@@H]1CCCN1C(=O)[C@@H]1CCCN1C(=O)[C@H](CCCCN)NC(=O)[C@H](CCCCN)NC(=O)[C@H](CO)NC(=O)[C@H](CCC(=O)O)NC(=O)[C@H](CCCCN)NC(=O)[C@H](CCCNC(=N)N)NC(=O)[C@H](CCC(N)=O)NC(=O)[C@H](CCC(N)=O)NC(=O)[C@@H](NC(=O)[C@H](CCCNC(=N)N)NC(=O)[C@H](CCC(N)=O)NC(=O)[C@H](Cc1cnc[nH]1)NC(=O)[C@H](CCC(=O)O)NC(=O)[C@@H]1CCCN1C(=O)[C@H](CO)NC(=O)[C@H](CC(C)C)NC(=O)[C@H](Cc1ccccc1)NC(=O)[C@H](CO)NC(=O)[C@H](CO)NC(=O)CN)C(C)C)C(=O)N[C@@H](CCC(N)=O)C(=O)N1CCC[C@H]1C(=O)N[C@@H](CCCNC(=N)N)C(=O)O | – | human, plasma | intravenous infusion, 4 µg/kg/h, 210 min | – | mean residence time | 106 ± 8 min
COC(=O)C[C@](O)(CCCC(C)(C)OC(C)=O)C(=O)O[C@@H]1C(OC)=C[C@]23CCCN2CCc2cc4c(cc2[C@H]13)OCO4 | – | CD1 mouse, stomach | subcutaneous, 1 mg/kg, 24 h, below quantification limit 1.00 ng/mL | – | tissue concentration | not detected
O=c1c2cc(Cl)ccc2sc2c(NCc3ccccc3)nc3ccccc3c12 | – | BALB/c nude mice | i.p., 30 mg/kg | – | body weight gain | 2.45 ± 0.02%
CSCC[C@H](NC(=O)CNC(=O)[C@H](CC(=O)O)NC(=O)[C@@H](NC(=O)[C@@H](NC(=O)[C@@H](NC(=O)CNC(=O)[C@H](CCC(N)=O)NC(=O)[C@H](CCSC)NC(=O)[C@H](CC(=O)O)NC(=O)[C@H](C)NC(=O)[C@H](C)NC(=O)[C@@H](NC(=O)[C@H](CO)NC(=O)[C@@H](N)CC(C)C)[C@@H](C)O)C(C)C)C(C)C)[C@@H](C)O)C(=O)N[C@@H](C)C(=O)N[C@@H](CO)C(=O)NCC(=O)N[C@@H](CC(C)C)C(=O)N[C@@H](CC(=O)O)C(=O)N[C@@H](CCCCN)C(=O)N[C@@H](CC(=O)O)C(=O)N[C@@H](Cc1ccc(O)cc1)C(=O)N[C@@H](CC(C)C)C(=O)N[C@@H](CCCCN)C(=O)N1CCC[C@H]1C(=O)N[C@@H](CC(=O)O)C(=O)N[C@@H](CC(=O)O)C(=O)O | – | patients, serum | intravenous infusion | – | Tmax | < 0.167 h
C#Cc1c(F)ccc2cc(O)cc(-c3ncc4c(N5CC6CCC(C5)N6C(=O)OCc5ccc(NC(=O)OCCCC)cc5)nc(OC[C@@]56CCCN5C[C@H](F)C6)nc4c3F)c12 | chemical stability | simulated intestinal fluid | 1 µM, 30 min | – | compound remaining | 90.4%
CN[C@](C)(C[18F])C(=O)O | – | SCID mouse A549 xenograft, heart | 60 min post injection | – | tissue uptake | 2.8 ± 0.6 %ID/g
CSCC[C@@H]1NC(=O)[C@@H]2CSSC[C@H](NC(=O)[C@H](CO)NC(=O)[C@H](C)N)C(=O)N[C@@H](CCCNC(=N)N)C(=O)N[C@@H]([C@@H](C)O)C(=O)N3CCC[C@H]3C(=O)N[C@@H](CCCCN)C(=O)N[C@@H](CC(=O)O)C(=O)N[C@H]3CSSC[C@H](NC(=O)[C@H](CCCCN)NC(=O)[C@H](CCCNC(=N)N)NC(=O)[C@H](CC(N)=O)NC1=O)C(=O)N[C@@H](CCCCN)C(=O)N[C@H]1CSSC[C@H](NC(=O)[C@@H]4CCCN4C(=O)[C@H](CC(=O)O)NC(=O)[C@H](C)NC3=O)C(=O)N[C@@H](C)C(=O)N[C@@H](CCCCN)C(=O)N[C@@H](CCC(=O)O)C(=O)N[C@@H]([C@@H](C)O)C(=O)NCC(=O)N[C@@H](CSSC[C@@H](C(N)=O)NC(=O)[C@H](CCCNC(=N)N)NC(=O)[C@H](CC(N)=O)NC1=O)C(=O)N1CCC[C@H]1C(=O)N[C@@H](Cc1ccc(O)cc1)C(=O)NCC(=O)N[C@@H](CCCCN)C(=O)N2 | – | DA rat pristane-induced arthritis, serum | subcutaneous, 0.1 mg/kg once weekly, 21 days | – | CO2 | 21 mmol/L
COC(=O)C[C@H](NC(=O)[C@H](C)NC(=O)[C@@H](NC(=O)[C@H](CC(=O)OC)NC(=O)[C@@H](NC(=O)c1ccc2ccccc2n1)C(C)C)C(C)C)C(=O)COc1c(F)cccc1F | – | rat pups | 1 mg/kg, 1 h | – | PaCO2 | 42.1 ± 2.58 mmHg
CC1COC2=C1C(=O)C(=O)c1c2ccc2c1C(OC(=O)CNC(=O)C(N)CCC(=O)O)CCC2(C)C (mixture of isomers) | – | water | – | – | thermodynamic solubility | 3900 µg/mL
O=C(O)CCn1c(=O)oc2cc(Cl)c(Cl)cc21 | – | Sprague-Dawley rat, male, acute pancreatitis, plasma | intravenous, 24 mg/kg bolus then 5.5 mg/kg/h, 1 h | – | steady-state concentration | ~600 µM
[2H]C([2H])([2H])C([2H])([2H])C([2H])([2H])OC(C(=O)OC1CCNCC1)(c1ccccc1)c1ccccc1 | – | healthy Japanese male subjects, plasma | oral, 18 mg, day 1, mean | – | tmax | 4.9 h
COc1ccc(C)cc1NC(=O)OC1CC2CCCC(C1)N2Cc1ccc(CC[18F])cc1 (stereo not shown) | – | BALB/c mice, EMT6 tumour | 2 h | relative to: tumour over fat | tumour to tissue ratio | 0.32
CC[C@H](C)C(=O)N1CCC(NC(=O)Nc2ccc(OC(F)(F)F)c(F)c2)CC1 | – | healthy volunteers, both sexes | oral, 8 mg, fed state | – | subjects with urinary tract infection | 0%
O=P([O-])([O-])Oc1ccc(-c2cc(=S)ss2)cc1.[Na+].[Na+] | HPLC | PBS | 1 h, pH 7.4, 25 °C | – | solubility | 1750 µg/mL
CC(Nc1c(-c2c(F)cc(OCCCN(C)C)cc2F)c(Cl)nc2ncnn12)C(C)(C)C (stereo not shown) | – | BALB/c mice | intraperitoneal, up to 48 h, single increasing doses | – | maximum tolerated dose | 15 to 20 mg/kg
O=C(O)CC[C@H](NC(=O)O[C@@H](CCCCNC(=O)c1ccc([18F])cc1)C(=O)O)C(=O)O | – | mouse, PC-3 PIP/flu xenografts, bladder | 30 min | – | tissue uptake | 22.4 ± 22.5 %ID/g
NS(=O)(=O)NCC(O)c1ccccc1F (stereo not shown) | rotarod impairment | mouse | intraperitoneal | – | TD50 | > 500 mg/kg
C/C=C/C=C/C/C=C/CCCCCCCc1cccc(O)c1O | – | female Kunming mice tumour-bearing, kidneys | intravenous, 10 mg/kg, 0.083 h | – | tissue concentration | 22300 ± 2630 ng/g
C[C@@H]1CC[C@H]2[C@@H](C)CO[C@@H]3O[C@@]4(C)CC[C@@H]1[C@]32OO4 | item: compound | rat, plasma | 2.00 ng/mL spiked, three freeze/thaw cycles | – | stability accuracy | 102%
Cc1ccc(/C=C/C(=O)O)cc1-c1cc2c(cc1C)C(C)(C)CCC2(C)C | – | Sprague-Dawley rat, male, plasma | oral, 100 mg/kg, 1 h, sesame oil vehicle | – | LDL level | 27 ± 8 mg/dL

Some of these lines once more:
SMILES | assay | system | setting | scale | measurement | result
CSCC[C@H](NC(=O)CNC(=O)[C@H](CC(=O)O)NC(=O)[C@@H](NC(=O)[C@@H](NC(=O)[C@@H](NC(=O)CNC(=O)[C@H](CCC(N)=O)NC(=O)[C@H](CCSC)NC(=O)[C@H](CC(=O)O)NC(=O)[C@H](C)NC(=O)[C@H](C)NC(=O)[C@@H](NC(=O)[C@H](CO)NC(=O)[C@@H](N)CC(C)C)[C@@H](C)O)C(C)C)C(C)C)[C@@H](C)O)C(=O)N[C@@H](C)C(=O)N[C@@H](CO)C(=O)NCC(=O)N[C@@H](CC(C)C)C(=O)N[C@@H](CC(=O)O)C(=O)N[C@@H](CCCCN)C(=O)N[C@@H](CC(=O)O)C(=O)N[C@@H](Cc1ccc(O)cc1)C(=O)N[C@@H](CC(C)C)C(=O)N[C@@H](CCCCN)C(=O)N1CCC[C@H]1C(=O)N[C@@H](CC(=O)O)C(=O)N[C@@H](CC(=O)O)C(=O)O | – | patients, serum | intravenous infusion | – | Tmax | < 0.167 h
C#Cc1c(F)ccc2cc(O)cc(-c3ncc4c(N5CC6CCC(C5)N6C(=O)OCc5ccc(NC(=O)OCCCC)cc5)nc(OC[C@@]56CCCN5C[C@H](F)C6)nc4c3F)c12 | chemical stability | simulated intestinal fluid | 1 µM, 30 min | – | compound remaining | 90.4%
